Results pooled from the literature.
Every numbered part comes from another study and shows a few of its results, in no order.

Series 1
Target: Prothrombin, mature alpha-thrombin (F2, Homo sapiens, UniProt P00734)
Method: aptamer microarray, sandwich
Form: DNA with 2'F-ANA
Medium: in vitro
Tested at: 200 nM
Notes: whole 15-mer aptamer, many near background
With: Cy3 exosite-II aptamer, 400 nM
Direction: higher = stronger binding
Quantity: mean fluorescence intensity
Sequence: GGTTGGTGTGGTTGG
2'F-ANA at 7 9 10 14: 118 a.u.
2'F-ANA at 2 3 4 9 13 14 15: 257 a.u.
2'F-ANA at 2 10 13: 128 a.u.
2'F-ANA at 1 2 3 6 8 11 14: 69.7 a.u.
2'F-ANA at 4 8 10 12 13 14 15: 59.7 a.u.
2'F-ANA at 1 8 13 15: 192 a.u.
2'F-ANA at 1 2 3 5 10 14 15: 48.2 a.u.
2'F-ANA at 1 3 5 7 10 14: 47.4 a.u.
2'F-ANA at 1 2 4 5 6 7 9 10 11 12 14: 66.8 a.u.
2'F-ANA at 1 3 4 10 11 14 15: 96.2 a.u.
2'F-ANA at 1 2 9 10: 106 a.u.
2'F-ANA at 3 7 8 9 10 12 13: 658 a.u.
2'F-ANA at 3 4 8 10 11 13: 316 a.u.
2'F-ANA at 1 2 4 5 6 7 10 11: 51.9 a.u.
2'F-ANA at 1 3 7 9 10 11 12 15: 108 a.u.
2'F-ANA at 1 2 3 4 5 9 12 14: 83.7 a.u.
2'F-ANA at 2 3 5 6: 96.5 a.u.
2'F-ANA at 5: 88.2 a.u.
2'F-ANA at 1 2 5 6 7 12 13 14: 49.1 a.u.
2'F-ANA at 2 8 9 10 11 12 13 14: 80.6 a.u.
2'F-ANA at 2 6 7 11 12 13 14 15: 171 a.u.
2'F-ANA at 1 2 3 4 5 6 7 11 14 15: 51.4 a.u.
2'F-ANA at 4 5 8 9 10 13 14 15: 153 a.u.

Series 2
Target: Histone acetyltransferase KAT6A, winged helix 2, GST fusion (KAT6A, Homo sapiens, UniProt Q92794, residues 85-181)
Method: protein binding microarray
Form: double-stranded DNA, one strand shown
Medium: in vitro
Tested at: not given
Notes: 8-mer, flanks averaged, mean of 2 arrays, mostly near background
Baseline: not given
Direction: higher = stronger binding
Quantity: E-score
Construct (chain): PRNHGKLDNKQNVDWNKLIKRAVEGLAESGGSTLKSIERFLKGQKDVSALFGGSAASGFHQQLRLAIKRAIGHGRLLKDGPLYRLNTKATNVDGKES
GTCTGGGA: -0.00957
CGATCTGA: 0.0534
ACGATATG: -0.0918
CTGGAAGA: 0.132
AATACAGG: -0.0847
TAATGAGA: -0.126
ATCTCTAC: -0.0746
ATTGGGCG: 0.051
ACGCTTTG: -0.134
AGTCGCGA: 0.11
AGCCTACA: -0.0063
GTATTAGA: 0.0261
ACAATATA: -0.0264
GCAGTGAA: 0.0778
ACCTAACA: 0.0467
ACGGGTAT: -0.0396
AGTAAGAC: -0.0546
CCGAGAAC: 0.136
CTGGGAGC: 0.0227
CCCGCTCA: -0.00333
GAGAGAAA: 0.14
ATTGTCTG: 0.00874
GAGGATAC: -0.00892

Series 3
Target: Interferon regulatory factor 7, full length, phosphomimetic (IRF7, Homo sapiens, UniProt Q92985, residues 1-503, S471D/S472D/S475D/S476D/S477D/S483D/S484D/S487D)
Method: protein-binding microarray
Form: double-stranded DNA, one strand shown
Medium: in vitro
Tested at: 2200 nM top
Notes: 60-bp whole probe
With: salmon DNA 0.4 mg/ml
Baseline: random background probes
Direction: higher = stronger binding
Quantity: fitted relative affinity
Constant ends, left off below: GCCTAGCAC … GTCTTGATTCGCTTGACGCTGCTG
Residues (chain): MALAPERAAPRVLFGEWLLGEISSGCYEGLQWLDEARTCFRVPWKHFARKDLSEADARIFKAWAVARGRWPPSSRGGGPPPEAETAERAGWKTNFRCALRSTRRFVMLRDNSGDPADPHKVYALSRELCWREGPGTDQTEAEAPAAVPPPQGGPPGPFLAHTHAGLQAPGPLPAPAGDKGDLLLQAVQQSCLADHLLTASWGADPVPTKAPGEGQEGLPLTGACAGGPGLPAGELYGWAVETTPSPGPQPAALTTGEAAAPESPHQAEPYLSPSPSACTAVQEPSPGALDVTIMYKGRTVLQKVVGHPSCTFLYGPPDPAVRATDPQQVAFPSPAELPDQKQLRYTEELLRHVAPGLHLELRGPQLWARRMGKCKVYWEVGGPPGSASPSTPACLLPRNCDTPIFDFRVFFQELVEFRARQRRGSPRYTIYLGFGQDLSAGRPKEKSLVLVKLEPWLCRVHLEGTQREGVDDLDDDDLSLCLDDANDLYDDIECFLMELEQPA
GACGGTCTCGGACTGGTGACGTGCTAG: -0.329 z-score
TTAGATTTCGGGTTTAGATTAGTGCTA: 3.74 z-score
GACGGACTGTGACTGGGGACGTGCTAG: -0.588 z-score
TTAGGATTGGACACTGGGTTAGTGCTA: -0.379 z-score
GACGGGCTCCTTTTCCTGACGTGCTAG: 0.203 z-score
GGACCGACCCCTCCATCCCTGTGCTAG: -0.381 z-score
ATAAAAATCTTTGTTGGAGGGGTGCTA: -0.679 z-score
TTAGGACTGCTACTGCTATAGTGCTAG: -0.205 z-score
TTAGGTATCGGGCCTGGGTTAGTGCTA: -0.519 z-score
TTTCCTCTGTCATTTTCTCTGTGCTAG: 3.72 z-score
TCTTTTCTGTTGTCTGTGTTTGTGCTA: 3.93 z-score
ACCCATCTCCAGTAGCCTAGCGTGCTA: 0.697 z-score
TTAAATTTCAGTTCCGATTAGTGCTAG: 2.04 z-score
TTAGATTTCAGTCACGATTAGTGCTAG: 0.156 z-score
GACTGACTGGGTTTCGGGACGTGCTAG: 1.75 z-score
GACGGACTGGGTCTCGGCACGTGCTAG: -0.756 z-score

Series 4
Target: Fragile X messenger ribonucleoprotein 1, C-terminal low-complexity region (Fmr1, Mus musculus, UniProt P35922)
Method: RNA Bind-n-Seq
Form: RNA
Medium: in vitro
Tested at: 200 nM
Notes: whole 134-nt RNA, ends assumed
With: 150 mM KCl
Baseline: input library
Direction: higher = stronger binding
Quantity: log2 enrichment
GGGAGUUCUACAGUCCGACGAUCCCUGUGCUACACAUCGUAUGUACCGAAUCGGGUUUUUUUGGGUUUUUUUGGUUUUUUUGGAAAGUAUUAUGUUACGCCGUUCGGAUCUGCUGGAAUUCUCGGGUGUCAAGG: -0.249
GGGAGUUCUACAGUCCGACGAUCUAACUUUAGAGGAGGAUCUGAUGGAUAUGGCAGUGGACGUGGAUUUGGGUAUGGCUAUAAUGGGUAUGGAGGAGGACCUGGAGGUGGCAAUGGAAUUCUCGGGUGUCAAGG: 0.15
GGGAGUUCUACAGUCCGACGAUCUGUGCUACACAUCGUAUGUACCGAAUCGGGUUUUUUUGGGUUUUUUUGGGGUUUUUUUGGGGAAAGUAUUAUGUUACGCCGUUCGGAUCUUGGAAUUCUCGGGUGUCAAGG: 0.178
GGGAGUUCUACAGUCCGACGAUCGCAGGAAGUAAAAACAAAUGGAAAUGCUUCGGAUAGUGGCAGGGGUGGGGGUGGCUAAGGAAAGGGUGGGAUGGGAGUGGGUAAAGAGUUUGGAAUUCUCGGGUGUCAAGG: 0.0055
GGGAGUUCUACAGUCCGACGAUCCACAGACAACACGCAACCACACAGACACAGAGGGAAGGGGUUGGGAUGGGGACAGGGUGCACAGCAGGGCGGGGUAGGACCCCAGCCCCUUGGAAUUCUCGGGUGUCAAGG: 1.33
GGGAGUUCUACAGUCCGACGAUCGUCCUGUGCUACACAUCGUAUGUACCGAAUCGGGGUGGGGUUUGGGGUUUUUUUGGGGAAAGUAUUAUGUUACGCCGUUCGGAUCUGCACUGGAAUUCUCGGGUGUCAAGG: 0.79
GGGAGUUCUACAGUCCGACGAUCAAGUCCUGUGCUACACAUCGUAUGUACCGAAUCGGUUUUUUUGGUUUUUGGAAAGGAAAGUAUUAUGUUACGCCGUUCGGAUCUGCACUUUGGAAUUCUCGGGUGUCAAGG: -1.06
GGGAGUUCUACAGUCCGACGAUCGCAGGAAGUAAAAACAAAUGGAAAUGCUUCGCAUAGUGGCAGGGGUGGGGGUUGCUAAGGAAAGGGUGGGAUGGGAGUGGGUAAAGAGUUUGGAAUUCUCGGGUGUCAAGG: 0.675
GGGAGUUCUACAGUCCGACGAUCUGGCCCUGGUGGCAUGCGGGGAGGAAGAGGUGGCCUCGUGGAUCGUGGUGGUCCCGGUGGAAUGUUCAGAGGUGGCCGUGGUGGAGACAGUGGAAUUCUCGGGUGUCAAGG: 0.0353
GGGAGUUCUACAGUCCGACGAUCCAAGUCCUGUGCUACACAUCGUAUGUACCGAAUCGGGAAAGGGAAAGGGAAAGGGAAAGUAUUAUGUUACGCCGUUCGGAUCUGCACUUCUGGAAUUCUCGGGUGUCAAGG: 0.441
